Measurements of several laboratories.
Every numbered part comes from another study and shows a few of its results, in no order. Changes are numbered by the printed parent chain.

Study 1 — method: RNA Bind-n-Seq; molecule type: RNA; medium: in vitro; tested at: 365 nM; baseline: no-protein control; reading: higher = stronger binding; measurement: RBNS enrichment (R)
Target: RNA binding protein fox-1 homolog 2, RRM domain, GST-SBP tag (RBFOX2, Homo sapiens, UniProt O43251-10, residues 100-194)
Notes: natural RNA segment, single round, ends assumed
All sequences stand within: GGGAGUUCUACAGUCCGACGAUC … UGGAAUUCUCGGGUGCCAA
Construct (chain): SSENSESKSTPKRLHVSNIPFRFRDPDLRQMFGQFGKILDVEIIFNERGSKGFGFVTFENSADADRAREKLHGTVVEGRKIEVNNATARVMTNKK
GAGUGUGAUUUUGCUGAUUGAAUGUGAGUUUUCAAAUAGGAGUCUUUUUCUGCAAUUUGUUUGCAUUUUUUAGAAGUGCAAACAGUAAGUAAAUAAAAGCCUUCGGUAAU: 0.522
UUGACUUUUUUUUUUAAAUUAAAGAUUGGGAAUGUAUGUGAGAGUAUGCAUAUGUAUGGGUGUGUGUGUGUGCGCGCAAUCAAACUGUGGUGUAAAUAGAUUCUCAGUGA: 0.448
AAUUGUGAGAACAAUUUUGAACAAUUUACCUGUCAAUAAAGCAGAAGGCAGCAGUUUUAAAGUUCUCGGGGUUUGUCUGAUAGUGAUGUCACCCAUUAUGCCUUCCUCUA: 0.443
CGAAAUCAGUGCGCUCCAGCUGAUCUCGUUCCGCCGGUUCCCCUUGGCCGCCAGUUCCGUUCUCCUCACGGGCCGAACGGAACAAGGGGUCCAGCUUGCGGGGGACCCUC: 1.22
CGUAUGUUCAUAUGGAUAAGACUAAGUCCAAAAAGGUGACUACAUCCAAAUUUAUAUUUCGGGGAAAUACCAUGAGAUAAUUAUAGCAUACUGGGCAUGUGUCCACACAC: 0.559
GAAAGUGUUUUUCAAACUCAGUGACAAGGACUUUGGUUUUUGUAAGACUGUUGAUGAUAUGAAGGCCUUUUGUAAGAAAAUAAAAAAUAAAGUAAAUUGCCUGUCUCUCU: 0.356
UAUUUAUAACUUUUAAGAACAUGAAGUAUUAGCUUAAUAUAGUUUUCUCUGUUGGUUUCUUCCUCAAGUUUGCAUUGUUUUCUUUUGUUAAAAUUAGAGAUUUCUUUUUA: 1.82
GCCUGAGGGCCUCCUAAAAGGUUUAAAUGUCCACGCCUCUCCAGUUGCUGAAGUAGGGUCUGAGAGAACCCUGGCAUCAGCAGACCCAGGGUGCUUCUGUCUCCUGCAGA: 0.411
CUGUGGCACCAGCUAGCUGCAGGUGCAGGGGAUGGCGGGAGUGAGGCUGUGUCUGCGGAUGGCUGGGGUCACUUCUCUGCCCAUGGGCUCCCUGCUCCCCCAGUUUUUUU: 0.379
GGUUUGCUCAUACAGCAUUUGGAUACUAAGCCAUUAUUUGCCGCUGUUGGUACUUAUACAAAGAAAAAUCAGCCCUGCCCUUUAGGACCUGAAAAUGCAACAGAAAGGGA: 0.365
UUAUUUAAGGACAUUCUUUUUUAUUGGCGGCUCCAUGGCCCUCGGCCGCUUGCACCCGCUCUCUGUUGUACACUUUCAAUCAACACUUUUUCAGACUAAAGGCCAAAACC: 0.44
UAUGCCCUGGACAAAGAAGUAUGUUUUGCCUAUGUCCCCAUACCAGGACCUUCUUUCAGAACGAGGGUAGUAUUACCCUAUCUGUUGGAAAGGAUGGUUUACAUAGCAGU: 0.601

Study 2 — method: protein-binding microarray; molecule type: double-stranded DNA, one strand shown; medium: in vitro; tested at: 0.8 µM; notes: whole 60-bp probe, no competitor; reading: higher = stronger binding; measurement: fluorescence intensity; all sequences stand within: … GTCTTGATTCGCTTGACGCTGCTG
Target: Centromere-binding protein 1, full length, N-terminal tag (CBF1, Saccharomyces cerevisiae, UniProt P17106, residues 1-351)
Chain of UniProt P17106 (whole entry, looked up): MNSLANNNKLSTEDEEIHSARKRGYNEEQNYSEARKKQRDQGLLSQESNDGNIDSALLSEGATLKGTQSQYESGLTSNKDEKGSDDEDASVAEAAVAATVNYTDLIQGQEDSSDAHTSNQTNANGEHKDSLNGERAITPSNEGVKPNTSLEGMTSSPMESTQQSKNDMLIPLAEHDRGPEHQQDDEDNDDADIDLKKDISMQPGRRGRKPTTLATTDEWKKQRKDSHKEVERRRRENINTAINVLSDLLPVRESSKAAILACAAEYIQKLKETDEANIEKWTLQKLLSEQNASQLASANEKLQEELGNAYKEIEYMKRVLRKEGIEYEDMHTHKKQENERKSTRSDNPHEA
GAATACAAATTACGGTGTGACGTAGATCTGAATTAG: 555 a.u.
CTATTCTTTTTCTTTCTGATGATAATGACAACTTTC: 641 a.u.
CTAATTGTCACTTTTCATCACGTGTGTATTTAATTC: 9320 a.u.
GAATTTTTTGCACATCACGTATGCTACTTTTGTTAG: 677 a.u.
GAATTATGAACGTTCAGGGTGACGTATTGTCATTAG: 492 a.u.
GAAGGAACTGTACAACACGTTCAACCAAAACTATAG: 552 a.u.
GAATTGATGATTTCGCACGTGGGAAAAGTAATCTAG: 4560 a.u.
CCTAACTACTATAGCCACCAGACATAGCTTCGTACA: 510 a.u.
GAACAATGGTGAACTAACGTGCTGTTGCGCTTATAG: 566 a.u.
GAATTAAATCTTGCGCATGTGCAGATTTTAAAATAG: 2690 a.u.
CTACTCCGCTTTATTCACGTGAAATGGGGTCGATTC: 3910 a.u.
GAATTAACAATCACTCATGTGCATTGCACCTTATAG: 551 a.u.
CTAGCAAATACAACGCACGATTATATATACATTTTC: 536 a.u.
GAACTCCAGAGTCACCACGACTGCGACTAGTATTAG: 511 a.u.
GAAGTGGCTCACACACATGTGGGCGCTATCCCCTAG: 526 a.u.
CTACCAGGTTTTGACAACGTGATGAGGTAATCTTTC: 2310 a.u.

Study 3 — method: universal PBM; molecule type: double-stranded DNA, one strand shown; medium: in vitro; tested at: 600 nM; reading: higher = stronger binding; measurement: E-score
Target: Sal-like protein 4, full length isoform A (SALL4, Homo sapiens, UniProt Q9UJQ4, residues 1-1053)
Chain of UniProt Q9UJQ4 (whole entry, looked up): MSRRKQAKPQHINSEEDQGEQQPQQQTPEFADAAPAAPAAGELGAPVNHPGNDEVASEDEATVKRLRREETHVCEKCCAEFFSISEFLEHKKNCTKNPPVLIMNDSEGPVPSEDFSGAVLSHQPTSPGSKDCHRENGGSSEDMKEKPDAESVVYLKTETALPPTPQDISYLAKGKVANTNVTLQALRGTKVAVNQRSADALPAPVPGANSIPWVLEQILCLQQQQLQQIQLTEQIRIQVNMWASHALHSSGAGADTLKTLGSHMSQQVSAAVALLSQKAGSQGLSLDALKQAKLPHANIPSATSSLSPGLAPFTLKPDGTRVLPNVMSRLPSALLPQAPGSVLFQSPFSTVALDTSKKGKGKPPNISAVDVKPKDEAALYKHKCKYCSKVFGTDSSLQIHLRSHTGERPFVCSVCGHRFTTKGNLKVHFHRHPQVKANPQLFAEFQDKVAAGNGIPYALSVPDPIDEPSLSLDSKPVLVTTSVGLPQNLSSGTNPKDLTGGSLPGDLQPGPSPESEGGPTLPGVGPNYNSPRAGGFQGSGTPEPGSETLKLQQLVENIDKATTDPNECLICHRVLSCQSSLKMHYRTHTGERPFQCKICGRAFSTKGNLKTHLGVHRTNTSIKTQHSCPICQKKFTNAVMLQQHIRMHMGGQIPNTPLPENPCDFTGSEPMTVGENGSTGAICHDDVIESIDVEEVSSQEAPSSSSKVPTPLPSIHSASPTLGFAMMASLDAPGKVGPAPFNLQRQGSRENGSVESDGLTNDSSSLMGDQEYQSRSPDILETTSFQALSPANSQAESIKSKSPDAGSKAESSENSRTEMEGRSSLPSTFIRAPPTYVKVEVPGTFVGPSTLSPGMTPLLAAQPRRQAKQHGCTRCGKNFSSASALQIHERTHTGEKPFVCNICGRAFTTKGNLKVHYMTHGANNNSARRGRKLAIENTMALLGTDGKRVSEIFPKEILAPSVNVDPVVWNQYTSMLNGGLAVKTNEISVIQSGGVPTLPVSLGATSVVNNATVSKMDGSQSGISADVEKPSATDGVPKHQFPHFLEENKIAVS
Notes: 8-mer, flanks averaged, mean of replicates
TAGCTTGA: -0.0886
ACCCTCCA: -0.125
TAACAGCA: 0.224
ATGACTTA: 0.148
CGCTCGTC: -0.234
GACCCATA: 0.0787
AGGAGATA: 0.0436
CCGATGAA: 0.0725
GCTGGTAC: -0.28
ACAATATG: 0.332
GATTTATA: 0.284
GGATGTAA: 0.126
CGAACGTC: -0.133
ACCACACT: -0.0331
GAGAAACA: 0.213
TCTTTTAA: 0.26
GCAGCATA: 0.055
AGGAGGAA: 0.0615
ATACCTGC: -0.0159
GAGCCCCC: -0.372

Study 4 — method: protein-binding microarray; molecule type: double-stranded DNA, one strand shown; medium: in vitro; tested at: not given; reading: higher = stronger binding; measurement: E-score
Target: Protein C-ets-1 (ETS1, Homo sapiens, UniProt P14921, residues 1-441, full length assumed)
Chain of UniProt P14921 (whole entry, looked up): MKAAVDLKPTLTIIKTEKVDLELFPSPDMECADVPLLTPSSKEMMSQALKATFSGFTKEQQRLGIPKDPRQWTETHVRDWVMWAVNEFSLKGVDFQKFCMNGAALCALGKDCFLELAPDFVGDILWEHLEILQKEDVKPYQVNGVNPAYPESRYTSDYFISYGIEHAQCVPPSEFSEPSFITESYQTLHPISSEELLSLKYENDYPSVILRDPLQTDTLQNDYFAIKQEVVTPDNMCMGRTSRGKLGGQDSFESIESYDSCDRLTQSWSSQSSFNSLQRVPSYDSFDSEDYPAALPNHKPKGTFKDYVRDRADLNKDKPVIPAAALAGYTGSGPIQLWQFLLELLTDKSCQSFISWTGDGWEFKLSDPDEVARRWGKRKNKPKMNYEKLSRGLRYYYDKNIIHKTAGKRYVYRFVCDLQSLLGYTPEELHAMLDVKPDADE
Notes: k-mer, scored over probes, only values ≥0.25
CAAAGGAA: 0.273
CCACGGGG: 0.252
ATCCGCGG: 0.267
ATTTCCTA: 0.411
AAAACCGG: 0.282
GCCCATCC: 0.309
CCGGTGTA: 0.316
ATACACCC: 0.256
CGGAACTA: 0.401
CCCGGCGG: 0.271
ATCCTTCC: 0.41
GCCGGGGA: 0.314
ACCTCCGG: 0.43
ATCCGGTC: 0.481
CATCTTCC: 0.314
ATCCGTTC: 0.409
AGCGGAAG: 0.487
GGTCGGAA: 0.318
AGCTTCCT: 0.434
GGAACTGA: 0.339
ATCCGGCG: 0.465
CGGACGAC: 0.31
CCGGACAG: 0.362

Study 5 — method: protein binding microarray; molecule type: double-stranded DNA, one strand shown; medium: in vitro; tested at: not given; baseline: not given; reading: higher = stronger binding; measurement: E-score
Target: Histone acetyltransferase KAT6A, both winged helices, GST fusion (KAT6A, Homo sapiens, UniProt Q92794, residues 1-181)
Notes: 8-mer, flanks averaged, mean of 2 arrays, mostly near background
Construct (chain): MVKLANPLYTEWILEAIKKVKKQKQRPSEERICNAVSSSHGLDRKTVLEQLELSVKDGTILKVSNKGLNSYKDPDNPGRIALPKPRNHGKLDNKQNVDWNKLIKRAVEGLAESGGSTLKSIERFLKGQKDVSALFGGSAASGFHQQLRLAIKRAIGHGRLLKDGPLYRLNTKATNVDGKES
ATGCAACG: 0.0109
CGGGCTTC: 0.193
AGAACTTA: 0.0514
CAACGCCG: 0.209
AAACACCT: -0.1
GACCTGTA: -0.0479
AAGTTCAC: -0.0251
AGGGAATA: -0.125
CTCTACCC: -0.271
ACCTACTG: -0.174
CCACGACC: -0.178
TGCAACAA: -0.15
CTATTTGA: -0.0453
ATTTCCGC: 0.206
CCCGAACA: -0.00607
AATTCTTA: -0.11
CTAGAACA: 0.0786
ATCTACGA: -0.149
ATCCGGAA: 0.142
CTACTTAC: -0.106
AAGCGCCG: 0.372
CGGCCGCC: 0.381

Study 6 — target: CCND2, cyclin fold, Cln2 fusion (human); method: yeast growth competition, sequencing; medium: yeast; notes: weak parent motif; baseline: not given; reading: higher = stronger binding; measurement: normalised enrichment score
Starting sequence: SLBP docking peptide (human); ARYKRKLLINDFG
ERYKRKLLINDFG [A1E]: -0.322
KRYKRKLLINDFG [A1K]: -0.304
ARYKRRLLINDFG [K6R]: 0.226
ARYKRKELINDFG [L7E]: -0.283
ARYKRKLLILDFG [N10L]: 0.752
ARYKRKLLINDFW [G13W]: -0.478
ARYKRKLLINDEG [F12E]: 0.0257
ARYKRKLLINDVG [F12V]: 0.269
ARYKRKLLINDFR [G13R]: 0.0698
ARYKRKLLINDFQ [G13Q]: -0.0521
IRYKRKLLINDFG [A1I]: -0.215
ARYKRKLLINCFG [D11C]: 0.276
ARYARKLLINDFG [K4A]: 0.245
ARYKSKLLINDFG [R5S]: 0.346
ARYKRKLLINDFT [G13T]: -0.0277
GRYKRKLLINDFG [A1G]: 0.559
ARYKMKLLINDFG [R5M]: 0.322
ARYKRKLLINDFY [G13Y]: 0.266
ARYKRKHLINDFG [L7H]: -0.183
ARYKRKLLINDLG [F12L]: 0.469

For quick reference, copied from above (study 3):
ATACCTGC: -0.0159
CGAACGTC: -0.133
TAGCTTGA: -0.0886
GCAGCATA: 0.055
CGCTCGTC: -0.234
CCGATGAA: 0.0725
AGGAGGAA: 0.0615
ATGACTTA: 0.148
ACAATATG: 0.332
GGATGTAA: 0.126
